Published values gathered from unrelated publications.
Protocols differ between the studies behind these lines.
Observed: cell growth or viability

C[C@H]1Oc2cc(cnc2N)-c2c(nn(C)c2C#N)CN(C)C(=O)c2ccc(F)cc21 — IC50 (MB002; 7 days): > 10 µM
O=C(Nc1ccc(Oc2nnc(-c3ccc(Cl)cc3)c3ccccc23)cc1)c1ccccc1 — viability (MCF7; MTT; 0.156 µM, 24 h): 22.4%
Cc1[nH]c(C)c([N+](=O)[O-])c(=O)c1-c1ccc(Oc2ccccc2)cc1 — IC50 (HEK293): > 10 µM
CC(=NNC(N)=S)c1ccc(Nc2nnc(-c3ccc(Cl)cc3)c3ccccc23)cc1 — cell death (MCF7; MTT; 5 µM): 90.9%
C[C@@H]1CC[C@@H]([C@@](C)(O)Cn2cnc3ccccc32)[C@H](OCc2ccccc2)C1 — inhibition (A2780; MTT; 10 µM, 72 h): 44.3%
OCc1ccc(N(Cc2ccc(F)cc2)C2CCC2)cc1Cl — inhibition (RBE; ATP luminescence; 46 µM, 72 h): 84%
CCc1c(C)c2ccc(OCc3nnc(S)n3N)c(C)c2oc1=O — viability (PC-3; MTT; 62.5 µg/mL): 38.8%
CNc1ncc2c(/C=C/C(=O)N3CCC(OC)CC3)nn(CCC(C)C)c2n1 — EC50 (FLO-1; resazurin; 5 days): 18.8 µM
S=C(Nc1ccccc1)Nc1ccc(Oc2nnc(-c3ccc(Cl)cc3)c3ccccc23)cc1 — viability (MCF7; MTT; 10 µM, 24 h): 2.79%
CN(C)CCNC(=O)c1ccc(-c2nc3ccc4[nH]ncc4c3c3c2CCCCC3)c(F)c1 — GI50 (Kasumi 1; 72 h): 0.132 µM
CC(=NNC(=O)c1ccc(N)cc1)c1ccc(Nc2nnc(-c3ccc(Cl)cc3)c3ccccc23)cc1 — viability (MCF7; MTT; 5 µM, 24 h): 5.8%
COc1cc(-c2nn(CCN3CCC(N(C)C)CC3)c3ncnc(N)c23)ccc1NC(=O)OC(C)(C)C — EC50 (FLO-1; resazurin; 5 days): 0.21 µM
CN(C)c1ccc(C=CC(=O)NC(=O)c2ccccc2O)cc1 — IC50 (HEK293): > 10 µM
O=C(Nc1ccc(Oc2nnc(-c3ccc(Cl)cc3)c3ccccc23)cc1)c1cccc([N+](=O)[O-])c1 — cell death (MCF7; MTT; 0.156 µM): 61.6%
CCN(Cc1ccccc1Cl)c1ccc(CO)c(Cl)c1 — inhibition (RBE; ATP luminescence; 46 µM, 72 h): 87%
Cc1ccc(C(CS(=O)(=O)c2ccccc2)=NNC2=NC(=O)C(=NNc3ccc([N+](=O)[O-])cc3)S2)cc1 — viability (WM 266-4; MTT; 6.3 µM, 48 h): 41.6%
C[C@@H]1CC[C@@H]([C@](O)(CNCc2ccc(F)cc2)COCc2ccc(F)cc2)[C@H](OCc2ccc(F)cc2)C1 — inhibition (A2780; MTT; 10 µM, 72 h): 93.8%
O=C(C=Cc1ccccc1)Nc1ccc(Oc2nnc(-c3ccc(Cl)cc3)c3ccccc23)cc1 — cell death (MCF7; MTT; 0.625 µM): 5.31%
CCOc1ccc2c(C)c(CC)c(=O)oc2c1C — viability (PC-3; MTT; 1000 µg/mL): 2.42%
CC(=NNC(=O)c1ccncc1)c1ccc(Nc2nnc(-c3ccc(Cl)cc3)c3ccccc23)cc1 — viability (MCF7; MTT; 5 µM, 24 h): 6.68%
CCc1c(C)c2ccc(OCC=Cc3ccccc3)c(C)c2oc1=O — viability (PC-3; MTT; 31.25 µg/mL): 93.9%
Cc1[nH]c(C)c(-c2ccc(-c3ccc(OC(F)(F)F)cc3)cc2)c(=O)c1Br — IC50 (HEK293): > 10 µM
CC(=NNC(=O)COc1ccc2c(C)c(Cc3ccccc3)c(=O)oc2c1C)c1ccc(Br)cc1 — viability (PC-3; MTT; 1000 µg/mL): 1.91%
CC(=NNC(=O)c1cccnc1)c1ccc(Nc2nnc(-c3ccc(Cl)cc3)c3ccccc23)cc1 — viability (MCF7; MTT; 1.25 µM, 24 h): 15.4%
CCC(=CCc1c(O)cc2c(c1O)C(=O)C[C@H](c1ccccc1O)O2)CC — inhibition (HeLa; MTT; 60 µM, 48 h): 66.9%
